Assay results gathered from unrelated publications.
Numbered parts are unrelated; each lists some results of a single study.

Set 1
Target: RING finger protein unkempt homolog, zinc fingers 1-6, GST-SBP tag (UNK, Homo sapiens, UniProt Q9C0B0, residues 30-357)
Method: RNA Bind-n-Seq
Molecule type: RNA
Medium: in vitro
Concentration: not given
Setting: RNA with constant flanks, human and mouse sites, ends assumed
Baseline: input RNA pool
Reading: higher = stronger binding
Quantity: bound/input enrichment
Shared flanks, not repeated: GGGAGUUCUACAGUCCGACGAUC … CAACAGAGGAUUGAGCAUCA
Target sequence (chain): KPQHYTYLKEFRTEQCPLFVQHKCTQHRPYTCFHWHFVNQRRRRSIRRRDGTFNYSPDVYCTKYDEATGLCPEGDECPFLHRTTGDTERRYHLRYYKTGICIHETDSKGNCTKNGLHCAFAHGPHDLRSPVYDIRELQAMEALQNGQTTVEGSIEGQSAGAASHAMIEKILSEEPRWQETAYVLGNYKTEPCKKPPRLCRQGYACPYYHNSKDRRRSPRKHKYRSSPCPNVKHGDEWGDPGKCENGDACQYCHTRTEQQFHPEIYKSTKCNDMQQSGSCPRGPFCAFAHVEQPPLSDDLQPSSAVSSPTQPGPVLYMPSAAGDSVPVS
UCAGAAUAAUUUCAUCACUGGAGUCAGAGCGAUAAAUGAGUUCUGCCUCAAAUCCAGUGAUCUAGAACAACUUCGAAAAAUCAGACGACGAAGUCCCCAUGAAGAUACUGAGUCUUUUAC: 0.0511 ratio
GGAGCCACCCCUCCUCUUACGUCUGUACCUUGAAAGCUGCUGCUGCUGCUUACAGAAUUAUAUUUUUUUCUUUUGAAGAGUUUUAAGAAGUUGUAACUUUUUGUGUCUUGUCAUGUAAAA: 0.628 ratio
CCAAGCUGCUGUACUUCAAAGGAAACAGAUCUAGCACACUGCUGCACCCCUGCUUCCACACUCCACACUUCACCCCGCUGCUUUUCUCUGACCCGCCCCUGGCCUUGUAAGACUCACGUA: 0.22 ratio
AUCUUUAUCUCACAAGAUGAAAUACAGUCAUUUAUGGCUAAUAACCAGUCUUUCUACAGCAAUAGAGAACAAUACCGACAGCAUCUGAAGGAGAAAUUUAAUAAAUACUGCCGCUUAAAU: 0.372 ratio
UCCUCUUCUGCCAGUAGUUUCCUGAGCUCAAACUCUACUUUUUGCAACAAGCAGAAUGUACACAUGUUAAACAAGGGCAUACAAGCAGGUAACUUGGAGAUUGUGAACGGUGCCAAAAAA: 0.147 ratio
GGCUGUGUAGGGGAGGAAGGGGUGCAUGCAUGUCCCCCACCCUCCACAGUCUUCCUUGCCUUUAGAGUGACCCUGCAGAGUCACUCAGCCAAAUCUGUCUGCUGCUCCCUCUCCUCAGCC: 0.151 ratio
AUACCAACUGAGGUGGCUAUAGAGUCCACACCAAUGAUACUGGAAUCUAGUAUCAUGUCAUCACAUGUUAUGAAAGGAAUUAAUCUAUCCUCUGGUGAUCAAAAUCUUGCUCCAGAGAUU: 0.0982 ratio
UUUUCUUUCUUUCUUAGCUGUUAGCUGAGAGGAAGUCUCUGAACAGGCGGCAGCGGCUCUUAUAGUGCAACCAUGGCAGACUAUUCAACAGUGCCUCCCCCCUCUUCUGGCUCAGCUGGU: 0.428 ratio
GCUGUGGCCAGAGGCUGUGCACUGCAGUGUGCAAUUCUUUCUCCGGCAUUUAAAGUUAGAGAGUUCUCUGUCACCGAUGCAGUUCCUUUUCCAAUAUCUCUGGUCUGGAACCACGACUCG: 0.132 ratio
AGAUGUCAGCUUAGUGUAAUAGGAAUUGGCCAUCUGGAAGCUGAUCAUCUUCUGAAGUCAGCAGAUGAUCAUUUAAGACUGUUAAAUGCUAUUUGGCCUCAUUAGUUAUGAGUUGCAUGU: 0.829 ratio
CAUCUGUAAGCAGUGUGGCCUCUCUGCAGAGGUGGCAGACGUGAUUAGAACUGUGUGUGUCUUAGAGGUGACAGUGUUUAUAGCUUAUUAAAUAGUUGAUACAGAUGCCCUUAUGAAAAC: 5.34 ratio

Set 2
Target: Histone acetyltransferase KAT6A, both winged helices, GST fusion (KAT6A, Homo sapiens, UniProt Q92794, residues 1-181)
Method: protein binding microarray
Molecule type: double-stranded DNA, one strand shown
Medium: in vitro
Concentration: not given
Setting: 8-mer, flanks averaged, mean of 2 arrays, mostly near background
Baseline: not given
Reading: higher = stronger binding
Quantity: E-score
Residues (chain): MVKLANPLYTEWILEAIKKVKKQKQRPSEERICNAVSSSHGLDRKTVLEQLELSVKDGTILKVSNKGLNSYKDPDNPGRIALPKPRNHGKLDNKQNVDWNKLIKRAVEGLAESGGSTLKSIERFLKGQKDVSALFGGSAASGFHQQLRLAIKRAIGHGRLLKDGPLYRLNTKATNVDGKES
ACCTAGAA: -0.128
ATGCACGC: 0.13
ATTCGCAA: -0.0196
CAGCATAC: -0.0925
ACCTCCAA: -0.212
ATAAAGAT: -0.0781
AGTTACGA: -0.105
ATCCTTTC: 0.0116
GGTATAAC: -0.0258
AGCTCTTC: -0.0622
CAGGGAGG: -0.202
TACGTAGA: -0.023
CTTGCGAC: 0.018
GCCACCGC: 0.245
ACCATGTG: -0.103
GCATGGCA: -0.0126
TAGCATAA: -0.0892
GAGAAGCC: -0.0148
AGGCGCCT: 0.226
CAGTGGGC: -0.157
CCCAAAGA: -0.264

Set 3
Target: TAR DNA-binding protein 43, full length, His tag (TARDBP, Homo sapiens, UniProt Q13148, residues 1-414)
Method: RNA Bind-n-Seq
Molecule type: RNA
Medium: in vitro
Concentration: 20 nM
Setting: 6-mer, flanks averaged, single round
With: 150 mM KCl
Baseline: input library
Reading: higher = stronger binding
Quantity: 6-mer enrichment (R)
UUGCAA: 0.644
CUUGUG: 0.865
GGUACA: 1
GAAGGA: 1.51
UGCAUC: 0.622
UUGUUA: 0.657
CGCGGU: 1.37
UGAAUG: 1.37
CGCGAU: 0.749
AUAGCU: 0.6
UAGGAA: 0.815
AAGCUC: 0.576
AACUAG: 0.699
GGUGAA: 1.6
GCAUAU: 0.676
ACGAGU: 0.877

Set 4
Target: Prothrombin, mature alpha-thrombin (F2, Homo sapiens, UniProt P00734)
Method: aptamer microarray, sandwich
Molecule type: DNA with 2'F-ANA
Medium: in vitro
Concentration: 200 nM
Setting: whole 15-mer aptamer, many near background
With: Cy3 exosite-II aptamer, 400 nM
Reading: higher = stronger binding
Quantity: mean fluorescence intensity
Strand: GGTTGGTGTGGTTGG
2'F-ANA at 1 2 3 11 14 15: 74.9 a.u.
2'F-ANA at 2 5 8 9 11 14: 50.7 a.u.
2'F-ANA at 3 4 5 12 13 15: 135 a.u.
2'F-ANA at 1 3 4 5 7 8 9 11 12: 125 a.u.
2'F-ANA at 2 3 6 8 9 11 13 14: 311 a.u.
2'F-ANA at 5 6 7 8 9 12 13 15: 92.5 a.u.
2'F-ANA at 2 3 5 6 8 12 13: 188 a.u.
2'F-ANA at 2 3 5 6 7 10 11 13 14: 48.4 a.u.
2'F-ANA at 1 3 4 5 9 12: 127 a.u.
2'F-ANA at 1 4 8 10 12 14 15: 50.1 a.u.
2'F-ANA at 3 5 6 7 8 10 15: 58.2 a.u.
2'F-ANA at 2 3 10 11 14: 280 a.u.
2'F-ANA at 1 3 5 7 12 13 14 15: 46.6 a.u.
2'F-ANA at 1 2 4 8 9 10 13: 61.2 a.u.
2'F-ANA at 1 3 4 11 12 13: 279 a.u.
2'F-ANA at 2 9 10 11 15: 118 a.u.
2'F-ANA at 1 2 3 4 5 6 9 11 15: 53 a.u.
2'F-ANA at 1 5 6 7 9 10: 48.5 a.u.
2'F-ANA at 3 4 7 8 9 10 12 13 14 15: 215 a.u.
2'F-ANA at 3 8 10 12 15: 584 a.u.
2'F-ANA at 7 9 12: 764 a.u.
2'F-ANA at 1 2 4 5 9 10 11 12 13 14: 52.1 a.u.

Set 5
Target: Interferon regulatory factor 5, full length, phosphomimetic (IRF5, Homo sapiens, UniProt Q13568-2, residues 1-514, S451D/S453D/S456D/S462D)
Method: protein-binding microarray
Molecule type: double-stranded DNA, one strand shown
Medium: in vitro
Concentration: 940 nM top
Setting: 60-bp whole probe
With: salmon DNA 0.4 mg/ml
Baseline: random background probes
Reading: higher = stronger binding
Quantity: fitted relative affinity
Shared flanks, not repeated: GCCTAGCAC … GTCTTGATTCGCTTGACGCTGCTG
TTAGATCTTAGACTGGATTAGTGCTAG: -0.294 z-score
GACGAACTGGGGTTTCGAGAAGTGCTA: 1.6 z-score
TCAAATCCCCTTCTACTACTGTGCTAG: 0.669 z-score
GACGATATCAGTTTAGAGACGTGCTAG: 0.212 z-score
GACGATATCAGTCTCGAGAGGTGCTAG: 0.61 z-score
TTAGATCTCAGACTGAATTAGTGCTAG: -0.0267 z-score
TTAGGTATCGGGTTTCGGTTCGTGCTA: 8.06 z-score
TTCGATTTCAGACTGGATTAGTGCTAG: 0.165 z-score
CTCCCCTTGCTTTCCAATTCGTGCTAG: 0.504 z-score
GACGGTATCGAAACTGGGGACGTGCTA: 6.49 z-score
TTAGATTTCAGTCTCGATTCGTGCTAG: 3.59 z-score
GCTTTTTTTTTTTTTTTTTTGTGCTAG: 0.772 z-score
GAACATTTCCTTTACATTCCGTGCTAG: 0.902 z-score
TTAGGTTTCACTTTCCAAAAGTGCTAG: 10.2 z-score
TTAGGTATCCGTATCGGTTAGTGCTAG: 2.82 z-score
TCAGTTTCCATTTTCAGACTGTGCTAG: 2.76 z-score
GACGGTTTCGACTCTCGGGACGTGCTA: 7.45 z-score
GACGGACTGGTTCTCGGGACGTGCTAG: -0.0154 z-score

Set 6
Target: Sal-like protein 4, full length isoform B (SALL4, Homo sapiens, UniProt Q9UJQ4-2, residues 1-616)
Method: universal PBM
Molecule type: double-stranded DNA, one strand shown
Medium: in vitro
Concentration: not given
Setting: 8-mer, flanks averaged, mean of replicates
Reading: higher = stronger binding
Quantity: E-score
Target sequence (chain): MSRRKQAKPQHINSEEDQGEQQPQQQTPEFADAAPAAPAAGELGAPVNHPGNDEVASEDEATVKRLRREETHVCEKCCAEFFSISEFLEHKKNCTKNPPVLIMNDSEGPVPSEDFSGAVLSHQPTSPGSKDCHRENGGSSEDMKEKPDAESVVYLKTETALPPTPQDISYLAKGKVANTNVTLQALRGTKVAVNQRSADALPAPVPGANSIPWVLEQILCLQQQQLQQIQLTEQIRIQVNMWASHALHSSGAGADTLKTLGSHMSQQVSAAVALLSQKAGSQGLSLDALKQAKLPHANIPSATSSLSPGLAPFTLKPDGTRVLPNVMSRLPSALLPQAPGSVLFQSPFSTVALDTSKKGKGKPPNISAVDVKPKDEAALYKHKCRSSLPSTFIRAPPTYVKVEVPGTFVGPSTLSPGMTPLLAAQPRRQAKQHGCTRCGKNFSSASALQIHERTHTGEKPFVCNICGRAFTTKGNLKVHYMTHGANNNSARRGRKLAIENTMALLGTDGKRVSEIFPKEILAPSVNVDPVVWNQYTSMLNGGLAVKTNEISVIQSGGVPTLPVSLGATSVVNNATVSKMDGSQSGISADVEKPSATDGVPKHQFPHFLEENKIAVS
AGAGGTAT: 0.12
GCTATTCA: 0.14
CACCAACG: -0.165
CTACAGTA: 0.0864
GCGCAGTA: -0.111
CTCAACTC: -0.0506
AACTATCA: 0.224
CACAACCC: -0.25
ACGTGTAT: 0.174
TTCAAAAA: 0.225
AACTTCTA: 0.0753
AGAGCAAC: -0.22
CAAAGGAA: 0.134
CGATTGAG: -0.0544
AAAGTCAT: 0.164
CCACTCAA: 0.0634

For quick reference, copied from above (set 6):
AGAGCAAC: -0.22
AAAGTCAT: 0.164
ACGTGTAT: 0.174
TTCAAAAA: 0.225
CGATTGAG: -0.0544
CACAACCC: -0.25
CCACTCAA: 0.0634
AACTATCA: 0.224
GCGCAGTA: -0.111
